Published values collected from several papers.
Each numbered part is a random draw from the data of one study; scales do not carry over between parts. Substitutions count along the parent as printed.

Study 1 — method: RNA Bind-n-Seq; molecule type: RNA; matrix: in vitro; tested at: not given; relative to: input RNA pool; direction: higher = stronger binding; quantity: bound/input enrichment
Target: RING finger protein unkempt homolog, zinc fingers 1-6, GST-SBP tag (UNK, Homo sapiens, UniProt Q9C0B0, residues 30-357)
Chain of UniProt Q9C0B0 (30-357, looked up): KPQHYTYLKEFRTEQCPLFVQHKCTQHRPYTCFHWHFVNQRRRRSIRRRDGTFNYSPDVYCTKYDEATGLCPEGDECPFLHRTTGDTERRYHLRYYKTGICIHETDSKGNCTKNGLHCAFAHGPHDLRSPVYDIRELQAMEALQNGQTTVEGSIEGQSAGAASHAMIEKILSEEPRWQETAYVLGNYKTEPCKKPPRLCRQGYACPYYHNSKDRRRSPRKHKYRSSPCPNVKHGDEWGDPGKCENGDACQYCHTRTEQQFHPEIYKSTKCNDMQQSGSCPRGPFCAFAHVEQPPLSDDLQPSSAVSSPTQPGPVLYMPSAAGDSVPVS
Notes: RNA with constant flanks, human and mouse sites, ends assumed
All sequences stand within: GGGAGUUCUACAGUCCGACGAUC … CAACAGAGGAUUGAGCAUCA
UUUUUUUUUUAAUCAGUCAGAAAAAGGAUACUGGAACUUGUUGUAUGUAACAGCAUAUUAAACUGGAGGCAGUGAUAAAUCAGCUACACAGGUAAAUUGUGUUAAAAUAAUGUUUAAGAU: 0.26 ratio
AAUAACUAUUGUUUACAGAUAAAUCCAGCAUCAACUAUAAAUCCUGACCAUCUUUCAUACUUCUGUUUUAUUGGUCGCUUUAUUGCAAUGGCACUGUUCCAUGGAAAGUUUAUUGAUACU: 0.21 ratio
CCUGCGACAGUUUUUAUGCUUUUUAGUGGUCAAGGAAGUUUGCUCCAACCUUUUAUAUACUAUAGAUUUCUUACCCUUCGAUAUUCGUCUCGAAGAAACCCAUAUUGUCGGACCUUAUUU: 7.45 ratio
GAAAAUGGAAGGUGUGUUACUAAGCUGGAGAGCAUGGGGUUCCGAGUGGGGCAAGGACUGAUAGAAAGGUUUACGAAAGAUACUGCAAGGUUCAAGGAUGAAUUAGACAUCAUGAAGUUC: 0.681 ratio
GCGGUGGUGGUGGAGAAGGACGCAGUGUUUAUUCCAGCAGGGUGGGAUAAUGAUAAGAAAAUAGGAAUAUUACAUGAAAAUUUUCAGACUUUGAAAGUAGAAGAUAAUUUUGAAGACAUC: 3.15 ratio
AUUGCUAAUGCCCCGGAUGGAGCUGGGUCAUUGCCUUGCACAGAAUUGCCCCAUGACCUUUCUUUGAAGAACAUACAACCCAAAGUUGAAGAGAAAAUCAGUUUCUCAGAUGACUUUUCU: 0.149 ratio
GCAGAGCCAAGAGGAGAAACAUGGAGAGGCUGACACUUGCUUGUGGUGGGAUAGCUCUGAAUUCCUUUGAUGACCUGAAUCCUGACUGUUUGGGACAUGCAGAGCUUGUCUAUGAGUAUA: 0.349 ratio
CUCAGGUGUAAAAGCCACACGAAGAAAUGAGCUGUAAGCGGUGGCAUCACUUUGGAUACUUAGUUUAAAAGUAUAUGUGUGAUUUUCUAUGUUCCAAAACUAUCAUGAGUUUUUUGGCCC: 4.04 ratio

Study 2 — method: RNA Bind-n-Seq; molecule type: RNA; matrix: in vitro; tested at: 200 nM; notes: whole 134-nt RNA, ends assumed; together with: 150 mM LiCl; relative to: input library; direction: higher = stronger binding; quantity: log2 enrichment; each molecule: 7-deaza-guanosine replaces G
Target: Ras GTPase-activating protein-binding protein 1, full length (G3BP1, Homo sapiens, UniProt Q13283)
Chain of UniProt Q13283 (whole entry, looked up): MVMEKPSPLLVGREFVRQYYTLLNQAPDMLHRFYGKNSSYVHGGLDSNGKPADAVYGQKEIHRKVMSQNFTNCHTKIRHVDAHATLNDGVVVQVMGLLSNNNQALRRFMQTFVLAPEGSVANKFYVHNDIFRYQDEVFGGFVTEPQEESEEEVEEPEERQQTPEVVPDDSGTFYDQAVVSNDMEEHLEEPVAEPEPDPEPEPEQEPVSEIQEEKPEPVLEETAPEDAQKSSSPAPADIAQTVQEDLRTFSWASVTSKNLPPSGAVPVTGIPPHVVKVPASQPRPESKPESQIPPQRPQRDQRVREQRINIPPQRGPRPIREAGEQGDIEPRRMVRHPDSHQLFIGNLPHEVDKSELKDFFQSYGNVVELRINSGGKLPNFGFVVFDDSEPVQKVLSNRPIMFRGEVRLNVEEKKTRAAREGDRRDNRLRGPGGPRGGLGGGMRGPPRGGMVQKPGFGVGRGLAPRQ
All sequences stand within: GGGAGUUCUACAGUCCGACGAUC … UGGAAUUCUCGGGUGUCAAGG
GUCCUGUGCUACACAUCGUAUGUACCGAAUCAAACCCAAACCCCCAAAUUUUUUUAAAAAAGUAUUAUGUUACGCCGUUCGGAUCUGCAC: 1.12
AAGUCCUGUGCUACACAUCGUAUGUACCGAAUCGGGCCCCGGGCCCCGGGCCCCGGAAAGUAUUAUGUUACGCCGUUCGGAUCUGCACUU: -1.36
AGUCCUGUGCUACACAUCGUAUGUACCGAAUCGGUUUUUGGUUUUUGGUUUUUUUGGAAAGUAUUAUGUUACGCCGUUCGGAUCUGCACU: -1.35
ACCAUGCAGGUGGGCAUCUUUGGGAAGUGGGGCACGGGGGGGAUAGGGAGGGGGGUAACACUUUGGGAACAGGUGGUCCCAGGUCGUUUC: 0.0283
CACAGACAACACGCACCCACACAGACAAAGAGGGAAGGGGUUGGGAUGGGGACAGGGUGCACAGCAGGGCGGGGUAGGACCCCAGCCCCU: -0.22
AAGUCCUGUGCUACACAUCGUAUGUACCGAAUCGGAAAAAGGUUUUUGGAAAAAGGAAAGUAUUAUGUUACGCCGUUCGGAUCUGCACUU: -1.46
UGUGCUACACAUCGUAUGUACCGAAUCGGGGUUUUUUUGGGGAAAAAAAGGGGUUUUUGGGGAAAGUAUUAUGUUACGCCGUUCGGAUCU: -1.71
CUCAAGUCCUGUGCUACACAUCGUAUGUACCGAAUCGGAAAAAGGAAAGGUGGAAAGUAUUAUGUUACGCCGUUCGGAUCUGCACUUCCA: -0.494

Study 3 — target: OGT, full length, His-tagged (human); method: phage display, sequencing; matrix: in vitro; tested at: 1 µg OGT; relative to: input library; direction: higher = stronger binding; quantity: fold enrichment; starting sequence: peptide; NSEYMPQYQIIFAHQ
Notes: single substitutions, 15-mer displayed peptide, unchanged parent 16.7
S2N: 18.3 fold
N1L: 10.9 fold
Q7R: 10.1 fold
Q15V: 17 fold
E3A: 19.5 fold
Y4G: 0.509 fold
S2G: 18.5 fold
E3S: 17.1 fold

Mixed results
Starting sequence: PafA, mature enzyme, eGFP fusion (Elizabethkingia meningoseptica, UniProt Q9KJX5); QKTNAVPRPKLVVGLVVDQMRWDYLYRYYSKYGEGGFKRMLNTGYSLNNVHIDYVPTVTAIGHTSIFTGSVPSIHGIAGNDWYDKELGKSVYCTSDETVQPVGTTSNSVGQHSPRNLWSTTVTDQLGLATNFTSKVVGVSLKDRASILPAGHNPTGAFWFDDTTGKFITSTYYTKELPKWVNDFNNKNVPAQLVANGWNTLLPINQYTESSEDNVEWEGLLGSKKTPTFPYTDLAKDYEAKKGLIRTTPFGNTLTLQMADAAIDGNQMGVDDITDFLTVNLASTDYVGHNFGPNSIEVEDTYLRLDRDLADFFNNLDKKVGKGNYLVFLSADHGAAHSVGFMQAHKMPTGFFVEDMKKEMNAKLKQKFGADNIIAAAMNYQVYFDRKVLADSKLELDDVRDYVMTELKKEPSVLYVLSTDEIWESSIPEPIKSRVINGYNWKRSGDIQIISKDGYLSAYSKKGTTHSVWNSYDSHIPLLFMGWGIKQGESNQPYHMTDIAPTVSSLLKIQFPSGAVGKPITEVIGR
S513G  oxyanion analog dissociation constant (vanadate, free oxyanion; microfluidic competitive inhibition; in vitro, cell-free expressed; not given, derived from inhibition constants, unchanged parent 676 nM; lower = stronger binding): 508 nM

A few entries again (mixed results):
S513G  oxyanion analog dissociation constant (vanadate, free oxyanion; microfluidic competitive inhibition; in vitro, cell-free expressed; not given, derived from inhibition constants, unchanged parent 676 nM; lower = stronger binding): 508 nM
